Measured values from different studies.
Lines come from different studies, so protocols differ. ± marks the error that the study gave.

| Substance | organism | test | test system | conditions | MIC |
| --- | --- | --- | --- | --- | --- |
| magainin 2 | Cutibacterium acnes | broth microdilution | ATCC 6919 | 24 h, 37 °C | > 100 µg/mL |
| O=C(/C=C/c1ccccc1)N/N=C/c1ccccc1 | Candida albicans, Aspergillus niger | fungal growth | – | – | 17.8 µM |
| actinomycin Y3 | Micrococcus luteus | broth microdilution | ATCC 15307 | 16 to 48 h | 4.67 µg/mL |
| Cc1cccc(C(=O)N/N=C/c2ccccc2Cl)c1 | Candida albicans, Aspergillus niger | fungal growth | – | – | 37.2 µM |
| CC[C@H](C)C[C@H](C)CCCCCCCCC(=O)N[C@H]1C[C@@H](O)[C@@H](NCCN)NC(=O)[C@@H]2[C@@H](O)CCN2C(=O)[C@H]([C@H](O)CCN)NC(=O)[C@H]([C@H](O)[C@@H](O)c2ccc(O)cc2)NC(=O)[C@@H]2C[C@@H](O)CN2C(=O)[C@H]([C@@H](C)O)NC1=O | Candida tropicalis | – | ATCC 750, RPMI 1640, 0.165 M MOPS | 24 h, 35 °C, 100% inhibition endpoint | 0.1 µg/mL |
| O=C(NCc1ccc2c(c1)OCO2)c1ccc(Br)cc1F | Saccharomyces cerevisiae | microbial growth | – | 72 h | 50 µM |
| O=C(N/N=C/c1ccccc1)c1cc([N+](=O)[O-])cc([N+](=O)[O-])c1 | Candida albicans, Aspergillus niger | fungal growth | – | – | 20 µM |
| CC[C@H](C)[C@H](NC(=O)[C@@H]1CCCN1C(=O)[C@H](CCCCN)NC(=O)[C@@H]1CCCN1C(=O)[C@@H]1CCCN1C(=O)[C@@H](NC(=O)[C@@H]1CCCN1C(=O)[C@H](CCCNC(=N)N)NC(=O)[C@@H]1CCCN1C(=O)[C@H](CCCNC(=N)N)NC(=O)[C@H](Cc1ccc(O)cc1)NC(=O)[C@H](CO)NC(=O)CNC(=O)[C@H](CCCCN)NC(=O)[C@H](CC(=O)O)NC(=O)[C@@H](N)C(C)C)[C@@H](C)O)C(=O)N[C@@H](Cc1ccc(O)cc1)C(=O)N[C@@H](CC(N)=O)C(=O)N[C@@H](CCCNC(=N)N)C(=O)N[C@@H](CC(N)=O)C(=O)O | Salmonella enterica serovar Typhimurium | – | SL1344, Mueller-Hinton broth | 18 h, 37 °C | 0.075 ± 0.018 µM |
| CC[C@H](C)[C@H](NC(=O)[C@H](C)N)C(=O)N[C@@H](CCCCN)C(=O)N[C@H](C(=O)N[C@@H](CCCNC(=N)N)C(=O)N[C@@H](CCCCN)C(=O)N[C@@H](CC(C)C)C(=O)N[C@@H](Cc1ccccc1)C(=O)N[C@@H](CCCCN)C(=O)N[C@@H](CCCCN)C(=O)N[C@@H](CC(C)C)C(=O)N[C@@H](CC(C)C)C(=O)N[C@@H](CCCNC(=N)N)C(N)=O)[C@@H](C)CC | Escherichia coli | – | ATCC 25922 | 1 h, 37 °C, dividing cells in LB | 50 to 100 µg/mL |
| CCOC(=O)[C@@]1(CS)N[C@@H](C(=O)O)C(C)(C)S1 | Proteus mirabilis | broth microdilution | clinical isolate | compound at 100 mg/L, with: meropenem | 1 µg/mL |
| LSTFFRLFNRSFTQGRRRRSVQWCA | Streptococcus gordonii | broth microdilution | peptide, ATCC 10558 | 24 h, 37 °C, planktonic, anaerobic | 49.8 ± 16.9 µg/mL |
| CCCCCCCCCCCC(=O)N/N=C/c1ccccc1Cl | Candida albicans, Aspergillus niger | fungal growth | – | – | 26.3 µM |
| STFFRLFNRSFTQGRRRRSVQWCA | Streptococcus sanguinis | broth microdilution | peptide, ATCC 49295 | 24 h, 37 °C, planktonic, anaerobic | 99.6 ± 33.7 µg/mL |
| CC(C)C[C@H](NC(=O)[C@H](Cc1ccccc1)NC(=O)[C@H](CS)NC(=O)[C@@H](N)CCCCN)C(=O)N[C@@H](CCCNC(=N)N)C(=O)N[C@@H](CCCNC(=N)N)C(=O)N[C@@H](CCCNC(=N)N)C(=O)N[C@@H](CCCNC(=N)N)C(=O)N[C@@H](CO)C(=O)N[C@@H](CCCNC(=N)N)C(=O)N[C@@H](C)C(=O)O | Micrococcus luteus | – | – | – | 6 µM |
| CC(C)C[C@H](NC(=O)[C@H](CCCNC(=N)N)NC(=O)[C@H](C)NC(=O)[C@@H](NC(=O)[C@H](CC(C)C)NC(=O)[C@H](Cc1c[nH]cn1)NC(=O)[C@H](CC(C)C)NC(=O)[C@@H](NC(=O)[C@@H](N)CO)[C@@H](C)O)C(C)C)C(=O)N[C@@H](CCCNC(=N)N)C(=O)NCC(=O)NCC(=O)O | Bacillus megaterium | – | 899 | 37 °C, ≥90% viability decrease | 50 µM |
| TFFRLFNRGRRRRSVQWCA | Streptococcus gordonii | broth microdilution | peptide, ATCC 10558 | 24 h, 37 °C, planktonic, anaerobic | 49.8 ± 16.9 µg/mL |
| CC[C@H](C)[C@H](NC(=O)[C@H](CC(=O)O)NC(=O)[C@H](Cc1ccccc1)NC(=O)[C@H](CC(C)C)NC(=O)CN)C(=O)N[C@H](C(=O)N[C@@H](CCCCN)C(=O)N[C@@H](CCCCN)C(=O)N[C@H](C(=O)N[C@H](C(=O)NCC(=O)N[C@@H](C)C(=O)N[C@@H](CC(C)C)C(=O)NCC(N)=O)C(C)C)C(C)C)C(C)C | Klebsiella pneumoniae | – | ATCC 700603, CAMHB | 18 h, 37 °C | > 23 µM |
| LSTFFRLFNGRRRRSVQWCA | Streptococcus sanguinis | broth microdilution | peptide, ATCC 49295 | 24 h, 37 °C, planktonic, anaerobic | 99.6 ± 33.7 µg/mL |
| O=C(NCc1ccc2c(c1)OCO2)c1ncc(Br)cc1F | Saccharomyces cerevisiae | microbial growth | BY4743 | 72 h | 200 µM |
| CCOC(=O)[C@]1(CS)N[C@H](C(=O)O)CS1 | Proteus mirabilis | broth microdilution | clinical isolate | compound at 100 mg/L, with: meropenem | 8 µg/mL |
| COc1cc(OC)cc(C(=O)N/N=C/c2ccccc2)c1 | Candida albicans, Aspergillus niger | fungal growth | – | – | 15.5 µM |
| CC(C)C[C@H](NC(=O)[C@H](C)NC(=O)[C@@H](N)CO)C(=O)N[C@@H](Cc1c[nH]cn1)C(=O)N[C@@H](CC(C)C)C(=O)N[C@H](C(=O)N[C@@H](CC(C)C)C(=O)N[C@@H](CCCNC(=N)N)C(=O)N[C@@H](CC(C)C)C(=O)N[C@@H](CCCNC(=N)N)C(=O)NCC(=O)NCC(=O)O)C(C)C | Bacillus megaterium | – | 899 | 37 °C, ≥90% viability decrease | 50 µM |
| OC(Cn1cncn1)(Cn1cncn1)c1ccc(F)cc1F | Candida albicans, Aspergillus niger | fungal growth | – | – | 2.29 µM |
| CC(C)C[C@H](NC(=O)[C@H](CCCNC(=N)N)NC(=O)[C@@H]1CCCN1C(=O)[C@H](CCCNC(=N)N)NC(=O)[C@@H]1CCCN1C(=O)[C@@H]1CCCN1C(=O)[C@H](CCCNC(=N)N)NC(=O)[C@@H]1CCCN1C(=O)[C@H](CCC(N)=O)NC(=O)[C@@H]1CCCN1C(=O)[C@H](CCCCN)NC(=O)[C@H](Cc1ccc(O)cc1)NC(=O)[C@@H](NC(=O)[C@@H]1CCCN1C(=O)[C@H](CCCCN)NC(=O)[C@H](CC(N)=O)NC(=O)[C@H](CC(N)=O)NC(=O)CN)C(C)C)C(=O)O | Salmonella enterica serovar Typhimurium | – | SL1344, Mueller-Hinton broth | 18 h, 37 °C | 0.192 ± 0.044 µM |
| CCCCCCCCCCCCCC(=O)N/N=C/c1ccccc1Cl | Candida albicans, Aspergillus niger | fungal growth | – | – | 75.9 µM |
| CC[C@H](C)[C@H](NC(=O)[C@H](CCCNC(=N)N)NC(=O)[C@H](CCCCN)NC(=O)[C@H](CC(C)C)NC(=O)[C@H](CC(C)C)NC(=O)CN)C(=O)N[C@@H](CCCCN)C(=O)N[C@H](C(=O)N[C@@H](CC(C)C)C(=O)N[C@@H](CC(C)C)C(N)=O)[C@@H](C)O | Enterobacter aerogenes | – | ATCC 13048 | 18 to 20 h | > 32 µM |

Repeated from above:
| Substance | organism | test | test system | conditions | MIC |
| --- | --- | --- | --- | --- | --- |
| OC(Cn1cncn1)(Cn1cncn1)c1ccc(F)cc1F | Candida albicans, Aspergillus niger | fungal growth | – | – | 2.29 µM |
| CC(C)C[C@H](NC(=O)[C@H](CCCNC(=N)N)NC(=O)[C@@H]1CCCN1C(=O)[C@H](CCCNC(=N)N)NC(=O)[C@@H]1CCCN1C(=O)[C@@H]1CCCN1C(=O)[C@H](CCCNC(=N)N)NC(=O)[C@@H]1CCCN1C(=O)[C@H](CCC(N)=O)NC(=O)[C@@H]1CCCN1C(=O)[C@H](CCCCN)NC(=O)[C@H](Cc1ccc(O)cc1)NC(=O)[C@@H](NC(=O)[C@@H]1CCCN1C(=O)[C@H](CCCCN)NC(=O)[C@H](CC(N)=O)NC(=O)[C@H](CC(N)=O)NC(=O)CN)C(C)C)C(=O)O | Salmonella enterica serovar Typhimurium | – | SL1344, Mueller-Hinton broth | 18 h, 37 °C | 0.192 ± 0.044 µM |
| CC[C@H](C)[C@H](NC(=O)[C@@H]1CCCN1C(=O)[C@H](CCCCN)NC(=O)[C@@H]1CCCN1C(=O)[C@@H]1CCCN1C(=O)[C@@H](NC(=O)[C@@H]1CCCN1C(=O)[C@H](CCCNC(=N)N)NC(=O)[C@@H]1CCCN1C(=O)[C@H](CCCNC(=N)N)NC(=O)[C@H](Cc1ccc(O)cc1)NC(=O)[C@H](CO)NC(=O)CNC(=O)[C@H](CCCCN)NC(=O)[C@H](CC(=O)O)NC(=O)[C@@H](N)C(C)C)[C@@H](C)O)C(=O)N[C@@H](Cc1ccc(O)cc1)C(=O)N[C@@H](CC(N)=O)C(=O)N[C@@H](CCCNC(=N)N)C(=O)N[C@@H](CC(N)=O)C(=O)O | Salmonella enterica serovar Typhimurium | – | SL1344, Mueller-Hinton broth | 18 h, 37 °C | 0.075 ± 0.018 µM |
